Published values collected from several papers.
Protocols differ between the studies behind these lines. ± marks the error that the study gave. In brackets after ≈: the same amount, converted by molar mass.

Sequences of proteins named here, by UniProt entry; tags and fusion partners are left off.
UniProt Q9BXM7, whole entry, looked up: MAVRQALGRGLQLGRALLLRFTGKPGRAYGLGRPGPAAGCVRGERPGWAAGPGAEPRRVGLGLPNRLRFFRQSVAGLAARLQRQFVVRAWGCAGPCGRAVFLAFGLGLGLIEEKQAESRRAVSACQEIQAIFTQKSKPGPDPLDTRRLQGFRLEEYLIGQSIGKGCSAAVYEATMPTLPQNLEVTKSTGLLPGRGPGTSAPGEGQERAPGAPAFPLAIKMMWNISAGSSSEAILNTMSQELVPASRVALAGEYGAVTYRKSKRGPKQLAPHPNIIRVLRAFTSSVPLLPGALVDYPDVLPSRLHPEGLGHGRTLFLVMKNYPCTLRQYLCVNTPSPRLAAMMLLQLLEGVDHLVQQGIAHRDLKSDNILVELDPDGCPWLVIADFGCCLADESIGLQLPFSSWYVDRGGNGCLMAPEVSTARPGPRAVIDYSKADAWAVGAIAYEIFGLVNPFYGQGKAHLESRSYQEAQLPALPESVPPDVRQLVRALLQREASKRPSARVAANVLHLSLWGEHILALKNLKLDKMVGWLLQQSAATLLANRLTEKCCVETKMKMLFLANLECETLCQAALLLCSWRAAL

SMILES = CC#C/C(=N\OC[C@H]1COCCN1)c1ccc2ncnc(Nc3ccc(OCc4cccc(F)c4)c(Cl)c3)c2c1; tested on = NCI-N87; assay = cell growth; setting = together with: 2% albumin or 0.08% AGP; scale = reference: with over without protein; measurement = IC50 fold shift; result = 2.9 to 4.4 fold
SMILES = O=c1ccc2[n+]([O-])c3ccc(O)cc3oc-2c1; tested on = Mycobacterium tuberculosis; system = mc2 6206 clofazimine-resistant fbiC mutant; setting = 7 days; measurement = MIC90; result = > 256 µM
SMILES = CC[C@H](C)[C@@H]1NC(=O)[C@H](CCC(=O)O)NC(=O)[C@@H]2CCCN2C(=O)[C@H](Cc2c[nH]cn2)NC(=O)[C@H](CC(=O)O)NC(=O)[C@H](Cc2ccc(O)cc2)NC(=O)[C@H](CC(N)=O)NC(=O)[C@@H]2CSSC[C@@H]3NC(=O)CNC(=O)CNC(=O)CNC(=O)[C@H](C)NC(=O)[C@H](C)NC(=O)CNC(=O)CNC(=O)[C@H](CSSC[C@H](NC3=O)C(=O)N[C@@H](CO)C(=O)N[C@@H](CC(=O)O)C(=O)N3CCC[C@H]3C(=O)N[C@@H](CCCNC(=N)N)C(=O)N2)NC1=O; tested on = Cav2.1 human; assay = Ba2+ current; setting = 200 nM; measurement = inhibition; result = 0%
SMILES = CC(C)Cc1nnc2c(C(=O)NC3c4ccccc4-c4ccccc43)cccn12; tested on = Escherichia coli; assay = broth microdilution; system = MB5746 rpoZ deletion; scale = reference: mutant over wild type; measurement = MIC ratio; result = > 32
SMILES = Cc1ccc(S(=O)(=O)N(C)CC(=O)N(Cc2ccc(C3CCCCC3)cc2)c2ccc(C(=O)O)c(O)c2)cc1; tested on = NIH3T3/v-Src, PANC-1, MDA-MB-231; assay = immunoblotting, item: phospho-Src Tyr416; setting = concentration not given, 24 h; measurement = phosphorylation level; result = no effect
SMILES = O=c1ccc2nc3ccc(OCC(O)C(F)(F)F)cc3oc-2c1 (stereo not shown); tested on = Mycobacterium tuberculosis; system = mc2 6206 bedaquiline-resistant MmpL5 regulator mutant; setting = 7 days; measurement = MIC90; result = 14 µM (≈ 4.55 µg/mL)
SMILES = CCN1CCN(Cc2ccc(NC(=O)c3ccc(C)c(/C=C/c4cnc5[nH]ccc5c4OC)c3)cc2C(F)(F)F)CC1; tested on = PINK1 (Homo sapiens, UniProt Q9BXM7); assay = inhibitor, cell-based kinome screen; system = human cells; setting = 5 µM; scale = reference: vehicle; measurement = log2 fold change; result = 0.328
SMILES = CCN(CC)C(=O)Oc1ccc(C(=O)Nc2cccc3cc[nH]c23)cc1; assay = NMDA receptor EPSC, inhibitor, whole-cell patch clamp; system = CA1 pyramidal neurons, mouse, hippocampal slices; setting = 10 µM; scale = reference: control; measurement = charge transfer; result = 105 ± 6.2%
SMILES = COCOc1ccc2nc3ccc(=O)c(I)c-3oc2c1; tested on = Mycobacterium tuberculosis; system = mc2 6206 bedaquiline-resistant MmpL5 regulator mutant; setting = 7 days; measurement = MIC90; result = 58 µM (≈ 22.2 µg/mL)
SMILES = CSc1nc(Cl)cc(Sc2nnc(-c3cc(C(F)(F)F)cc(C(F)(F)F)c3)[nH]2)n1; tested on = Klebsiella spp.; setting = together with: polymyxin B nonapeptide 25 µg/mL; measurement = MIC; result = 23.5 µg/mL (≈ 49.8 µM)
SMILES = CCC(C)C1NC(=O)/C(=C(/C)O)C1=O (stereo not shown); tested on = Arabidopsis thaliana; assay = apo-pHusion imaging; system = elongating root cells; setting = 10 µM; measurement = apoplastic pH; result = ~7
SMILES = Cc1cc(C(=O)O)ccc1-c1c2ccc(=O)cc-2oc2cc(OCc3ccc([N+](=O)[O-])o3)ccc12; tested on = Mycobacterium tuberculosis; system = mc2 6206 PA-824-resistant ddn mutant; setting = 7 days; measurement = MIC90; result = 44 µM (≈ 20.7 µg/mL)
SMILES = CCCCCCC1c2ccc(O)cc2Oc2cc(O)ccc21; tested on = Klebsiella spp.; setting = together with: NAB7061 4 µg/mL; measurement = MIC; result = 7.5 µg/mL (≈ 25.1 µM)

A few entries again:
SMILES = O=c1ccc2[n+]([O-])c3ccc(O)cc3oc-2c1; tested on = Mycobacterium tuberculosis; system = mc2 6206 clofazimine-resistant fbiC mutant; setting = 7 days; measurement = MIC90; result = > 256 µM
